Measurements pooled from the literature.
Protocols differ between the studies behind these lines. ± marks the error that the study gave.
Organism: Salmonella typhimurium

With N#C[C@@]1(n2ccc(N)nc2=O)O[C@H](CO)[C@@H](O)[C@H]1O the viability was 89% (TA1537; 2.5 µM, without S9).
The survival of O=[N+]([O-])c1ccc(N2CCN(CCC(O)c3ccc(F)cc3)CC2)c(C(F)(F)F)c1 (stereo not drawn) is reported as 35% (SOS/umu test; TA1535/pSK1002; 0.063 mg/mL, 4 h, with S9, full range).
The revertant ratio of Cc1cc(C(=O)NC(C)(C)COc2cccc3c2C(N)=NS(=O)(=O)N3)cc(C)n1 is reported as 0.8 (Ames test, confirmatory; TA100; 5000 µg/plate; baseline: solvent control).
COc1cccc(-c2n[nH]c(SCc3ccccn3)n2)c1OC: “revertant colonies per plate” 14 (Ames test, preincubation; TA1535; 1.0 mg/plate, without S9).
O=[N+]([O-])c1ccc(NC2CCNCC2)c(C(F)(F)F)c1 gave a survival of 33.9% (SOS/umu test; TA1535/pSK1002; 0.5 mg/mL, 4 h, without S9, full range).
Under “revertant colonies per plate”, COCCN(CCOC)N=O is recorded as 31.7 ± 4 (mutagenicity, Ames plate incorporation; TA98; 500 µg/plate, 3 d, without S9, methanol).
CC(=O)N1CCC(C(=O)N2CCN3C(=O)c4cc(-c5ccccc5)ccc4NC(=O)C3C2)CC1 (stereo not drawn): “revertants per plate” 33.5 (TA98; 5.0 µg/plate, added: rat liver S9).
Under “revertant colonies per plate”, CNC(=O)c1c(N(C)N=O)ncn1C is recorded as 119 ± 15 (mutagenicity, Ames plate incorporation; TA100; 2500 µg/plate, without S9, methanol).
With O=[N+]([O-])c1ccc(N2CCC(NCCC(O)c3ccc(F)c4ccccc34)CC2)c(C(F)(F)F)c1 (stereo not drawn) the survival was 113% (SOS/umu test; TA1535/pSK1002, TGA medium; 3.05e-05 mg/mL, 4 h, without S9).

For quick reference, copied from above:
COc1cccc(-c2n[nH]c(SCc3ccccn3)n2)c1OC: “revertant colonies per plate” 14 (Ames test, preincubation; TA1535; 1.0 mg/plate, without S9).
